# Results pooled from the literature.
# Lines come from different studies, so protocols differ. Values joined by “and” are separate records of one study, mostly repeats; a detail may differ. Numbers after ± are the reported error.
SMILES,assay,test system,setting,how to read,measurement,value
CC(C)C[C@H](NC(=O)[C@H](CCCCN)NC(=O)[C@H](CCC(N)=O)NC(=O)[C@@H](N)Cc1c[nH]cn1)C(=O)N[C@H](C(=O)N[C@@H](CSSC[C@H](NC(=O)[C@@H](NC(=O)[C@H](CC(C)C)NC(=O)[C@H](CCCCN)NC(=O)[C@H](CCC(N)=O)NC(=O)[C@@H](N)Cc1c[nH]cn1)C(C)C)C(=O)N[C@@H](Cc1ccccc1)C(=O)N[C@@H](C)C(=O)N[C@@H](CCC(=O)O)C(=O)N[C@@H](CC(=O)O)C(=O)N[C@H](C(=O)O)C(C)C)C(=O)N[C@@H](Cc1ccccc1)C(=O)N[C@@H](C)C(=O)N[C@@H](CCC(=O)O)C(=O)N[C@@H](CC(=O)O)C(=O)N[C@H](C(=O)O)C(C)C)C(C)C,OD600,20 mM Tris-HCl,pH 7.4,,turbidity onset concentration,1 mM
Nc1nonc1-c1nnc2c(n1)-c1ccccc1C2=O,,mouse,"intraperitoneal, 20 mg/kg, 3 weeks, 5 times per week",,body weight and blood counts,no effect
CCCCCCCCCCCCCCCC(=O)N[C@@H](CCC(=O)NCCCC[C@H](NC(=O)[C@H](CC(=O)O)NC(=O)[C@H](CO)NC(=O)[C@@H](NC(=O)[C@H](Cc1ccccc1)NC(=O)[C@@H](NC(=O)CNC(=O)[C@H](CCC(N)=O)NC(=O)[C@H](C)NC(=O)[C@@H](Cc1ccc(O)cc1)NC(C)=O)[C@@H](C)O)[C@@H](C)O)C(=O)N[C@@H](CO)C(=O)N[C@@H](CCCCN)C(=O)N[C@@H](Cc1ccc(O)cc1)C(=O)N[C@@H](CC(C)C)C(=O)N[C@@H](CC(=O)O)C(=O)N[C@@H](CCC(=O)O)C(=O)N[C@@H](CCCNC(=N)N)C(=O)N[C@@H](C)C(=O)N[C@@H](C)C(=O)N[C@@H](CCC(N)=O)C(=O)N[C@@H](CC(=O)O)C(=O)N[C@@H](Cc1ccccc1)C(=O)N[C@H](C(=O)N[C@@H](CCC(N)=O)C(=O)N[C@@H](Cc1c[nH]c2ccccc12)C(=O)N[C@@H](CC(C)C)C(=O)N[C@@H](CC(C)C)C(=O)N[C@@H](CCC(=O)O)C(=O)NCC(=O)NCC(=O)N1CCC[C@H]1C(=O)N[C@@H](CO)C(=O)N[C@@H](CO)C(=O)NCC(=O)N[C@@H](C)C(=O)N1CCC[C@H]1C(=O)N1CCC[C@H]1C(=O)N1CCC[C@H]1C(=O)N[C@@H](CO)C(N)=O)C(C)C)C(=O)O,,"male cynomolgus monkey, plasma","subcutaneous, 0.0211 mg/kg",,Cmax,76.3 ng/mL
NC1CCN(C(=O)Oc2ccc(C3CCCC4(C3)OOC3(O4)C4CC5CC(C4)CC3C5)cc2)CC1 (racemic),,"male ICR mice, plasma","oral, 50 mg/kg",relative to: intravenous 10 mg/kg,oral bioavailability,120%
CC[C@H](C)[C@H](NC(=O)[C@H](Cc1c[nH]cn1)NC(=O)[C@H](CCCCN)NC(=O)[C@H](C)NC(=O)[C@H](C)NC(=O)[C@H](Cc1c[nH]cn1)NC(=O)[C@H](CCCNC(=N)N)NC(=O)CNC(=O)[C@H](Cc1c[nH]cn1)NC(=O)[C@H](CCCCN)NC(=O)[C@H](Cc1ccccc1)NC(=O)[C@@H](NC(=O)[C@H](CO)NC(=O)CNC(=O)[C@H](Cc1c[nH]c2ccccc12)NC(=O)CN)[C@@H](C)CC)C(=O)NCC(=O)N[C@@H](Cc1c[nH]cn1)C(=O)N[C@@H](C)C(=O)N[C@@H](C)C(=O)N[C@H](C(=O)N[C@@H](CC(N)=O)C(=O)N[C@@H](Cc1c[nH]cn1)C(=O)N[C@@H](Cc1ccc(O)cc1)C(=O)N[C@@H](CC(C)C)C(N)=O)C(C)C,,"zebrafish embryos 28 hpf, E3 medium",24 h,,chronic toxic concentration,25 µM
O=C1NC2(CC2)COc2ncc(F)cc2[C@H]2COCCN2c2ccn3ncc1c3n2,,"Sprague-Dawley rat, male, blood","oral, 10 mg/kg/day, 4 weeks, end of treatment, subacute toxicity",,lymphocyte percentage,72.3 ± 13.3%
CC(C)C[C@@H](NC(=O)[C@@H](CCCNC(=N)N)NC(=O)[C@@H](Cc1c[nH]cn1)NC(=O)[C@@H](Cc1c[nH]c2ccccc12)NC(=O)[C@@H](Cc1c[nH]cn1)NC(=O)[C@@H](Cc1ccccc1)NC(=O)[C@H](NC(=O)[C@@H](Cc1ccc(O)cc1)NC(=O)CNC(=O)CNC(=O)CCOCCOCCOCCNC(=O)CN1CCN(CC(=O)O)CCN(CC(=O)O)CC1)[C@H](C)O)C(=O)N[C@H](CC(N)=O)C(=O)N1CCC[C@@H]1C(=O)O [gallium-68 labelled],,male C57BL/6 mice,"intravenous, 1.85 MBq, 120 min",relative to: tumour over brain,tumour-to-tissue ratio,6.78 ± 1.03
CC[C@H](C)[C@H](NC(=O)[C@H](CCCCN)NC(=O)CNC(=O)[C@H](CC(C)C)NC(=O)[C@H](Cc1ccccc1)NC(=O)[C@H](CCCCN)NC(=O)[C@H](CO)NC(=O)[C@H](Cc1ccccc1)NC(=O)[C@H](Cc1c[nH]c2ccccc12)NC(=O)[C@H](CCC(N)=O)NC(=O)[C@@H](NC(=O)[C@H](Cc1ccccc1)NC(=O)CCCCCNC(=O)CN1CCN(CC(=O)O)CCN(CC(=O)O)CCN(CC(=O)O)CC1)C(C)C)C(=O)N[C@@H](CCC(=O)O)C(=O)N1CCC[C@H]1C(=O)N[C@@H](CC(=O)O)C(=O)N[C@H](C(=O)N[C@@H](CO)C(=O)N[C@@H](CCC(N)=O)C(=O)N[C@H](C(=O)N[C@@H](CCC(N)=O)C(=O)N[C@@H](CC(=O)O)C(=O)N1CCC[C@H]1C(=O)N[C@@H](CC(N)=O)C(=O)N[C@@H](CC(=O)O)C(=O)N[C@@H](CCC(N)=O)C(=O)N[C@@H](Cc1ccc(O)cc1)C(=O)N[C@@H](CCC(=O)O)C(=O)N1CCC[C@H]1C(=O)N[C@@H](Cc1ccccc1)C(=O)O)C(C)C)C(C)C [copper-64 labelled],,"C57BL/6 male mouse, tumour-naive, large intestine",1 h,,tissue uptake,5.64 ± 0.8 %ID/g
CSCC[C@H](N)C(=O)N[C@@H](C)C(=O)N[C@@H](CCCNC(=N)N)C(=O)N[C@@H](CCCNC(=N)N)C(=O)N[C@@H](CC(=O)O)C(=O)N[C@@H](CCCCN)C(=O)N[C@H](C(=O)N[C@@H](CC(=O)O)C(=O)N[C@@H](Cc1ccccc1)C(=O)N[C@@H](C)C(=O)N[C@@H](CCCNC(=N)N)C(=O)N[C@@H](CCCNC(=N)N)C(=O)N[C@@H](CCCNC(=N)N)C(=O)N[C@@H](CCCNC(=N)N)C(=O)NCCCCCC(=O)NCCCCC(NC(=O)CCCCCNC(=O)[C@H](CCCNC(=N)N)NC(=O)[C@H](CCCNC(=N)N)NC(=O)[C@H](CCCNC(=N)N)NC(=O)[C@H](CCCNC(=N)N)NC(=O)[C@H](C)NC(=O)[C@H](Cc1ccccc1)NC(=O)[C@H](CC(=O)O)NC(=O)[C@@H](NC(=O)[C@H](CCCCN)NC(=O)[C@H](CC(=O)O)NC(=O)[C@H](CCCNC(=N)N)NC(=O)[C@H](CCCNC(=N)N)NC(=O)[C@H](C)NC(=O)[C@@H](N)CCSC)[C@@H](C)O)C(=O)NCCCCC(NC(=O)C(CCCCNC(=O)CCCCCNC(=O)[C@H](CCCNC(=N)N)NC(=O)[C@H](CCCNC(=N)N)NC(=O)[C@H](CCCNC(=N)N)NC(=O)[C@H](CCCNC(=N)N)NC(=O)[C@H](C)NC(=O)[C@H](Cc1ccccc1)NC(=O)[C@H](CC(=O)O)NC(=O)[C@@H](NC(=O)[C@H](CCCCN)NC(=O)[C@H](CC(=O)O)NC(=O)[C@H](CCCNC(=N)N)NC(=O)[C@H](CCCNC(=N)N)NC(=O)[C@H](C)NC(=O)[C@@H](N)CCSC)[C@@H](C)O)NC(=O)CCCCCNC(=O)[C@H](CCCNC(=N)N)NC(=O)[C@H](CCCNC(=N)N)NC(=O)[C@H](CCCNC(=N)N)NC(=O)[C@H](CCCNC(=N)N)NC(=O)[C@H](C)NC(=O)[C@H](Cc1ccccc1)NC(=O)[C@H](CC(=O)O)NC(=O)[C@@H](NC(=O)[C@H](CCCCN)NC(=O)[C@H](CC(=O)O)NC(=O)[C@H](CCCNC(=N)N)NC(=O)[C@H](CCCNC(=N)N)NC(=O)[C@H](C)NC(=O)[C@@H](N)CCSC)[C@@H](C)O)C(N)=O)[C@@H](C)O (stereo partly shown),,"C57BL/6 mouse female, lungs","dose not given, 3 h",relative to: total,mean tissue distribution,1.91%
N=C(N)NCCC[C@H](NC(=O)[C@H](CCCNC(=N)N)NC(=O)[C@H](CCCNC(=N)N)NC(=O)[C@H](CCC(N)=O)NC(=O)[C@H](CCCNC(=N)N)NC(=O)[C@H](CCCNC(=N)N)NC(=O)[C@H](CCCCN)NC(=O)[C@H](CCCCN)NC(=O)[C@H](CCCNC(=N)N)NC(=O)CNC(=O)[C@H](Cc1ccc(O)cc1)NC(=O)[C@H](Cc1ccccc1)NC(=O)[C@H](Cc1ccccc1)NC(=O)[C@H](Cc1ccccc1)NC(=O)Cc1ccc2ccccc2c1)C(=O)O,,C57BL/6 mice,"intraperitoneal, 10 mg/kg, 6 h",direction not given,health score,5
Cc1ccccc1/N=N/c1ccc2[nH]cc(CCN(C)C)c2c1,light irradiation,solution,together with: light 385 nm,,cis isomer at photostationary state,82%
CCCCCCCCCCCC(=O)C(C)C(=O)N1CCC[C@H]1C(=O)NC(C)(C)C(=O)NC(C)(C)C(=O)NC(C)(C)C(=O)N[C@](C)(CC)C(=O)NCCC(=O)N[C@@H](C)C(=O)N[C@](C)(CC)C(=O)N[C@@H](C)C(=O)N[C@@H](CC(C)C)C(=O)N[C@](C)(CC)C(=O)NCCC(=O)N[C@@H](C)C(=O)N[C@](C)(CC)C(=O)NCCC(=O)N[C@@H](C)C(=O)NC(C)(C)C(=O)NC(C)(C)C(=O)NC(C)(C)C(=O)N[C@@H](C)C(=O)N[C@@H](CC(=O)O)C(=O)O (stereo partly shown),LC-MS,50% pooled human serum,"40 µM, 60 min, pH 7.5, 37 °C",relative to: 0 h,remaining intact peptide,46.5% and 48.7%
CC(C)=CCC/C(C)=C\CCn1cc(CC(P(=O)(O)O)P(=O)(O)O)nn1,,CD-1 mice,"intravenous, 0.3 mg/kg, 24 h",,biliary excretion of dose,not detected

# Repeated from above:
SMILES,assay,test system,setting,how to read,measurement,value
CC[C@H](C)[C@H](NC(=O)[C@H](CCCCN)NC(=O)CNC(=O)[C@H](CC(C)C)NC(=O)[C@H](Cc1ccccc1)NC(=O)[C@H](CCCCN)NC(=O)[C@H](CO)NC(=O)[C@H](Cc1ccccc1)NC(=O)[C@H](Cc1c[nH]c2ccccc12)NC(=O)[C@H](CCC(N)=O)NC(=O)[C@@H](NC(=O)[C@H](Cc1ccccc1)NC(=O)CCCCCNC(=O)CN1CCN(CC(=O)O)CCN(CC(=O)O)CCN(CC(=O)O)CC1)C(C)C)C(=O)N[C@@H](CCC(=O)O)C(=O)N1CCC[C@H]1C(=O)N[C@@H](CC(=O)O)C(=O)N[C@H](C(=O)N[C@@H](CO)C(=O)N[C@@H](CCC(N)=O)C(=O)N[C@H](C(=O)N[C@@H](CCC(N)=O)C(=O)N[C@@H](CC(=O)O)C(=O)N1CCC[C@H]1C(=O)N[C@@H](CC(N)=O)C(=O)N[C@@H](CC(=O)O)C(=O)N[C@@H](CCC(N)=O)C(=O)N[C@@H](Cc1ccc(O)cc1)C(=O)N[C@@H](CCC(=O)O)C(=O)N1CCC[C@H]1C(=O)N[C@@H](Cc1ccccc1)C(=O)O)C(C)C)C(C)C [copper-64 labelled],,"C57BL/6 male mouse, tumour-naive, large intestine",1 h,,tissue uptake,5.64 ± 0.8 %ID/g
